Assay results gathered from unrelated publications.
Numbers after ± are the reported error.
B1: STAU1 A375E/R376A/L472S/S473E (Homo sapiens, UniProt O95793-2); sequence looked up; chain MKLGKKPMYKPVDPYSRMQSTYNYNMRGGAYPPRYFYPFPVPPLLYQVELSVGGQQFNGKGKTRQAAKHDAAAKALRILQNEPLPERLEVNGRESEEENLNKSEISQVFEIALKRNLPVNFEVARESGPPHMKNFVTKVSVGEFVGEGEGKSKKISKKNAAIAVLEELKKLPPLPAVERVKPRIKKKTKPIVKPQTSPEYGQGINPISRLAQIQQAKKEKEPEYTLLTERGLPRRREFVMQVKVGNHTAEGTGTNKKVAKRNAAENMLEILGFKVPQAQPTKPALKSEEKTPIKKPGDGRKVTFFEPGSGDENGTSNKEDEFRMPYLSHQQLPAGILPMVPEVAQAVGVSQGHHTKDFTRAAPNPAKATVTAMIEAELLYGGTSPTAETILKNNISSGHVPHGPLTRPSEQLDYLSRVQGFQVEYKDFPKNNKNEFVSLINCSSQPPLISHGIGKDVESCHDMAALNILKLSEELDQQSTEMPRTGNGPMSVCGRC
B2: UGT1A9 (Homo sapiens, UniProt O60656); chain GKLLVVPMDGSHWFTMRSVVEKLILRGHEVVVVMPEVSWQLGRSLNCTVKTYSTSYTLEDLDREFKAFAHAQWKAQVRSIYSLLMGSYNDIFDLFFSNCRSLFKDKKLVEYLKESSFDAVFLDPFDNCGLIVAKYFSLPSVVFARGILCHYLEEGAQCPAPLSYVPRILLGFSDAMTFKERVRNHIMHLEEHLLCHRFFKNALEIASEILQTPVTEYDLYSHTSIWLLRTDFVLDYPKPVMPNMIFIGGINCHQGKPLPMEFEAYINASGEHGIVVFSLGSMVSEIPEKKAMAIADALGKIPQTVLWRYTGTRPSNLANNTILVKWLPQNDLLGHPMTRAFITHAGSHGVYESICNGVPMVMMPLFGDQMDNAKRMETKGAGVTLNVLEMTSEDLENALKAVINDKSYKENIMRLSSLHKDRPVEPLDLAVFWVEFVMRHKGAPHLRPAAHDLTWYQYHSLDVIGFLLAVVLTVAFITFKCCAYGYRKCLGKKGRVKKAHKSKTH
B3: NCOR1 2057-2453 (Mus musculus, UniProt Q60974); fluorescein label; sequence looked up; chain MGQVPRTHRLITLADHICQIITQDFARNQVPSQASTSTFQTSPSALSSTPVRTKTSSRYSPESQSQTVLHPRPGPRVSPENLVDKSRGSRPGKSPERSHIPSEPYEPISPPQGPAVHEKQDSMLLLSQRGVDPAEQRSDSRSPGSISYLPSFFTKLESTSPMVKSKKQEIFRKLNSSGGGDSDMAAAQPGTEIFNLPAVTTSGAVSSRSHSFADPASNLGLEDIIRKALMGSFDDKVEDHGVVMSHPVGIMPGSASTSVVTSSEARRDEGEPSPHAGVCKPKLINKSNSRKSKSPIPGQSYLGTERPSSVSSVHSEGDYHRQTPGWAWEDRPSSTGSTQFPYNPLTIRMLSSTPPTQIACAPSAITQAAPHQQNRIWEREPAPLLSAQYETLSDSDD
UniProt P0A6A8, sequence (whole entry, looked up): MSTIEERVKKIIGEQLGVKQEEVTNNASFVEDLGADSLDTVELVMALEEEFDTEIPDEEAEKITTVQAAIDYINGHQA
UniProt P0AEK4, sequence (whole entry, unmodified, looked up): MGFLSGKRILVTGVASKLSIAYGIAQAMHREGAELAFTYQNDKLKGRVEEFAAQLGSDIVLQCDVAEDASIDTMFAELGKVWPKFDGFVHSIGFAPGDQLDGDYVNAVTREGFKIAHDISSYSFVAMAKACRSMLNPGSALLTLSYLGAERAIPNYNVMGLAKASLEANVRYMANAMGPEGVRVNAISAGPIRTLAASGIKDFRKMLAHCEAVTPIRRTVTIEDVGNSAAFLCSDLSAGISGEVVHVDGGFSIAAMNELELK
UniProt O75899, sequence (whole entry, looked up): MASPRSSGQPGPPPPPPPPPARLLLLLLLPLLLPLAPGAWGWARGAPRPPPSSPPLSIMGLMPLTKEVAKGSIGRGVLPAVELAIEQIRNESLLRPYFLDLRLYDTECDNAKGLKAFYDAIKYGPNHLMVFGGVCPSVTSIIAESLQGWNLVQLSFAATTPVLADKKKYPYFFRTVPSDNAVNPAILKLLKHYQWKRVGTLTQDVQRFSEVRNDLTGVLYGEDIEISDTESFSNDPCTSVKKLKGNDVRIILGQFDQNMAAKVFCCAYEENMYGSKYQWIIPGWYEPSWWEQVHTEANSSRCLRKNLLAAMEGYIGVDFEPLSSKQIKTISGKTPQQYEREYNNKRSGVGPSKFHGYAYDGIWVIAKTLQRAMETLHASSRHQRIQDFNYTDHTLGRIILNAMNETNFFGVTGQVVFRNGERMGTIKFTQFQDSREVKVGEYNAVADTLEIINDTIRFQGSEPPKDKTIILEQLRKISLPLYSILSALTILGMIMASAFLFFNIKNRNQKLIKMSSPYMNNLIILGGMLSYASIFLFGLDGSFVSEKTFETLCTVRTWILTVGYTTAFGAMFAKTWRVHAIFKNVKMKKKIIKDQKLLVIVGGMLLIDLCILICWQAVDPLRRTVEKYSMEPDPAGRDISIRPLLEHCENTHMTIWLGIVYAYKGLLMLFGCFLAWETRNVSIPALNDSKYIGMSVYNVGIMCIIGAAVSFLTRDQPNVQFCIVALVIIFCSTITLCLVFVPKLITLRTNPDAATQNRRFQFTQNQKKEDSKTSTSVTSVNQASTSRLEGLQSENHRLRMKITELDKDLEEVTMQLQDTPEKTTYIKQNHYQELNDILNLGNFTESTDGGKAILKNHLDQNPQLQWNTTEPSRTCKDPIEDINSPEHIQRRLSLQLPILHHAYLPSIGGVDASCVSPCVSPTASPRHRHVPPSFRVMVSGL
UniProt P0AGE0, sequence (whole entry, looked up): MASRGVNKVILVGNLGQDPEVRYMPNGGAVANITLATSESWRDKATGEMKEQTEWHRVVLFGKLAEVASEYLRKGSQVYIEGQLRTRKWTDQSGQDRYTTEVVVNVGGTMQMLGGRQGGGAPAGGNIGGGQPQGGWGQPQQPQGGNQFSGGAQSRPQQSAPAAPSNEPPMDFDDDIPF
UniProt Q99828, sequence (whole entry, looked up): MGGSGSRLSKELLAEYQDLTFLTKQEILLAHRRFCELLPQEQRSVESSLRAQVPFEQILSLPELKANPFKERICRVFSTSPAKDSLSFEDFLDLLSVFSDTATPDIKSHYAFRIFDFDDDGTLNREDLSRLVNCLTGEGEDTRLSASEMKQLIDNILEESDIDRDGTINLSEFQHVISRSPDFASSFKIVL
UniProt Q01196, sequence (whole entry, looked up): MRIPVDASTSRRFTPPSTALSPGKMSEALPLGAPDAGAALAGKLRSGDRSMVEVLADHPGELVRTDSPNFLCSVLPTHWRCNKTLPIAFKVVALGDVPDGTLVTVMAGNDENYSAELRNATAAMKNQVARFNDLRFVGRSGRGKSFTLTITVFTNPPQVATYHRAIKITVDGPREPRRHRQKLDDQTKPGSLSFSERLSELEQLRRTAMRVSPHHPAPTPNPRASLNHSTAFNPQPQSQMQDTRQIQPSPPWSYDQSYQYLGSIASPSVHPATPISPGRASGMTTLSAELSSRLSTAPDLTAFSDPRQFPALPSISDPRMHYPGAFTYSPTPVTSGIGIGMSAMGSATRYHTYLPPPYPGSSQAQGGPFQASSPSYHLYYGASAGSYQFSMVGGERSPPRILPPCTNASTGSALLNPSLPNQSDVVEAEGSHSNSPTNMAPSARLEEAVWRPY
UniProt Q92900, sequence (whole entry, looked up): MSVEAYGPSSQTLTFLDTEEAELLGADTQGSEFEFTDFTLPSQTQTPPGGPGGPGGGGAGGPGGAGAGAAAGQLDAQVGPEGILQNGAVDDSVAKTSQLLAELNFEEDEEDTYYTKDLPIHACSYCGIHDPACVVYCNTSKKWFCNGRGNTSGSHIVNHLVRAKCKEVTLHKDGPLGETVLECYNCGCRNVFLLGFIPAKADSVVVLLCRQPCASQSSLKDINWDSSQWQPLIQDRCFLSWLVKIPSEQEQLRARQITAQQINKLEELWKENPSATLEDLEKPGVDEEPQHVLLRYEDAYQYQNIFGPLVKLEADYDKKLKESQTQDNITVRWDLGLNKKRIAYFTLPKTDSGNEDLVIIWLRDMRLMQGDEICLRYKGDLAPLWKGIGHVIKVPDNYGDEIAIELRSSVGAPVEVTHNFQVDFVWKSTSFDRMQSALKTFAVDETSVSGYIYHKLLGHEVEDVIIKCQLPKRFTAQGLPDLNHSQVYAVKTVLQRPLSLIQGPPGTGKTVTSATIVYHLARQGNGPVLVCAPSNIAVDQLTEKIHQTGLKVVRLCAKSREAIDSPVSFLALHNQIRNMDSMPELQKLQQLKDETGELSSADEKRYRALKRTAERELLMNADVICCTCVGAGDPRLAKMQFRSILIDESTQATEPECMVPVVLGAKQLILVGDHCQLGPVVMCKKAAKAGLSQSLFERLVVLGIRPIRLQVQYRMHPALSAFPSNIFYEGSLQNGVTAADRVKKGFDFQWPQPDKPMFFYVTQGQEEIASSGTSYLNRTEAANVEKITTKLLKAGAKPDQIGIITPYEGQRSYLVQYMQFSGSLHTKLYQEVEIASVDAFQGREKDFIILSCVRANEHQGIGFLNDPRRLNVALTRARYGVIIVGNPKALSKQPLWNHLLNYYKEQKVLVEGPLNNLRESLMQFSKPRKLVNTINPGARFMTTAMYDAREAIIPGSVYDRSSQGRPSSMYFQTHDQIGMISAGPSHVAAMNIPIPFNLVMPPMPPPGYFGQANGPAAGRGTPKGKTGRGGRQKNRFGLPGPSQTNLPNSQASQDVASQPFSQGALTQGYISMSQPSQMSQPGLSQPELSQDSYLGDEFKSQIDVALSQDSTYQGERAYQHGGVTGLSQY
UniProt P61981, sequence (whole entry, looked up): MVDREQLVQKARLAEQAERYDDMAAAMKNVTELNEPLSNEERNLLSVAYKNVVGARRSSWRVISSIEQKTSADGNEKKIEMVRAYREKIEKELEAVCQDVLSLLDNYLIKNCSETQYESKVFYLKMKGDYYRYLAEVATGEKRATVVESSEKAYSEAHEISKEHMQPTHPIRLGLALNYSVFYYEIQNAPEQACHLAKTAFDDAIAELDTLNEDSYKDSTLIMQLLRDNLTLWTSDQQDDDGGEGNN

AVVRPGSLDLP (SH3BP5 residues 340-350 (Homo sapiens))
IC50 (MAPK10 JNK3α1, pT221/pY223 (Homo sapiens, UniProt P53779-2); displacement of labelled peptide, competitor, FRET; peptide; pH 7.4, NaCl 150 mM): 1020 ± 75 µM

GABBR1 GABAB1b isoform, full length E673R (Homo sapiens)
cell surface expression (GABBR2 (Homo sapiens, UniProt O75899); anti-Flag M1 on intact cells; baseline: WT/WT heterodimer, higher = more surface expression): 90%

B1 (STAU1 A375E/R376A/L472S/S473E)
mRNA enrichment (UPF1 (Homo sapiens, UniProt Q92900); reporter mRNA in eIF4E IP, tethering, IP; in cells, not purified; baseline: λN-HA-GFP, higher = more enrichment): 4.8 fold

acpP, triclosan-pantetheine probe on Ser (Escherichia coli, UniProt P0A6A8)
ΔH (fabI 1-262 (Escherichia coli, UniProt P0AEK4); ITC): -56.1 ± 6.38 kcal/mol

CALM3 (Homo sapiens, UniProt P0DP25)
fast recovery time constant (SCN5A peptide truncated IG peptide (Homo sapiens, UniProt Q14524); whole-cell patch clamp; tsA201; with: Ca2+): 5.8 ms

B2 (UGT1A9)
Vmax (COc1ccc2c(=O)c(O)c(-c3ccccc3)oc2c1; steady-state kinetics; pH 7.4, 37 °C): 0.01 µmol/min/mg

CBFB/MYH11 fusion (Homo sapiens)
RUNX1 occupancy (RUNX1 (Homo sapiens, UniProt Q01196); ChIP; ME-1; 6 hours h, CEBPA promoter, with: AI-10-49 1 µM; baseline: DMSO, higher = more occupancy): 8 fold

NYLAWYQ
inhibition (peptide, human polyclonal IgM RF LOP; concentration not given, 5 µg/mL mAb II-481 coated, with: RF at 50% max binding concentration): 20%

YWHAG (Homo sapiens, UniProt P61981)
apparent relative IC50 (USP8 fragment, pS718 (Homo sapiens); DUB activity, inhibitor; 5 nM p-USP8, partial inhibition, with: Ub-AMC 1 µM): 0.0311 µM

ssb (Escherichia coli, UniProt P0AGE0)
ratio of effective affinity constants (RecQ helicase and Zn-binding domains (Escherichia coli); unwinding activity, magnetic tweezers; without vs with SSB): 3 ratio

FWYEAMKALYG (designed peptide; cyclic)
IC50 (CIB1 (Homo sapiens, UniProt Q99828); competition with peptide, competitor, TR-FRET; peptide): 0.032 ± 0.01 µM

B3 (NCOR1 2057-2453)
EC50 (THRB/RXRA TRβ , RXRα full length 87-461 (Homo sapiens); coregulator recruitment, tr-FRET; no ligand): 0.0083 µM

EGF mature (Mus musculus)
specific binding (Egfr whole, on cells (Rattus norvegicus); radioligand binding; NRK; 0.3 nM, not TGF-beta treated, with: platelet TGF-beta): 405 cpm/well

AAEDWCKKGDT
inhibition (peptide, human polyclonal IgM RF LOP; concentration not given, 5 µg/mL mAb II-481 coated, with: RF at 50% max binding concentration): 0%

Some of these lines once more:
GABBR1 GABAB1b isoform, full length E673R (Homo sapiens)
cell surface expression (GABBR2 (Homo sapiens, UniProt O75899); anti-Flag M1 on intact cells; baseline: WT/WT heterodimer, higher = more surface expression): 90%

B1 (STAU1 A375E/R376A/L472S/S473E)
mRNA enrichment (UPF1 (Homo sapiens, UniProt Q92900); reporter mRNA in eIF4E IP, tethering, IP; in cells, not purified; baseline: λN-HA-GFP, higher = more enrichment): 4.8 fold
